# Measured values collected from several papers.
# Protocols differ between the studies behind these lines. Values joined by “and” are separate records of one study, mostly repeats; a detail may differ.
# Cell line: HL-60(TB)
SMILES,test,conditions,quantity,result
O=C(Nc1nnc2n3c(=S)[nH][nH]c3nc(-c3ccc(Cl)cc3)c1-2)c1ccccc1,,10 µM,growth percent,93.2%
CC(C)N1CCC(NC2CCN(c3cccc(-c4cc5cc(F)ccc5[nH]4)c3)CC2)CC1,,,GI50,1970 nM
Cc1cc(=O)[nH]c(=O)n1Cc1cn(-c2c3ccccc3nc3ccccc23)nn1,NCI60 single dose,10 µM,growth,16.3%
COc1cc(CCC[P+](c2ccccc2)(c2ccccc2)c2ccccc2)c(OC)c2c1OCO2.[I-],SRB,,Log10GI50,-6.41 log M
C#C[C@@]1(O)[C@@H](CO)O[C@@H](n2cc(F)c3c(N)ncnc32)[C@@H]1O,cell growth,,TGI,3530 nM
CN1CCN(c2ccc3[nH]c(-c4ccc5[nH]c(-c6ccc(C(F)(F)F)cc6)nc5c4)nc3c2)CC1,cell growth,"10 µM, 48 h",growth percent,23.9%
Cc1n[nH]c2nc(-c3ccc(Cl)cc3)c3c(NC(=O)c4ccccc4)nnc-3n12,,10 µM,growth percent,102%
CCCN1CCN(c2ccc3[nH]c(-c4ccc5[nH]c(-c6cc(OC)c(OC)c(OC)c6)nc5c4)nc3c2)CC1,cell growth,"10 µM, 48 h",growth percent,97.4%
COc1cc(CCCO)cc2c1OCO2,NCI60 SRB,concentration not given,growth percent,99.6%
CCN(CC)c1ccc(C=NNC(=O)CSc2nc3ccccc3c(=O)n2Cc2ccc(S(N)(=O)=O)cc2)c(O)c1,,,CC50,> 100000 nM
Cc1cc(=O)[nH]n1-c1nc(-c2ccc(Cl)cc2)c2c(NC(=O)c3ccccc3)nnc-2[nH]1,,10 µM,growth percent,102%
COc1ccc(OC)c(-c2nc3ccc(-c4nc5ccc(N6CCN(C)CC6)cc5[nH]4)cc3[nH]2)c1,cell growth,"10 µM, 48 h",growth percent,104%
C#C[C@@]1(O)[C@@H](CO)O[C@@H](n2cc(I)c3c(N)ncnc32)[C@@H]1O,cell growth,,TGI,200 nM and 343 nM
O=C(Nc1nnc2n3c(Cc4ccccc4)n[nH]c3nc(-c3ccc(Cl)cc3)c1-2)c1ccccc1,,10 µM,growth percent,98%
Cn1cncc1C1=CN(c2ncnc3[nH]cnc23)CCS1,,,CC50,> 200000 nM
CCCCN1CCN(c2ccc3nc(-c4ccc5nc(-c6cc(OC)ccc6OC)[nH]c5c4)[nH]c3c2)CC1,cell growth,"10 µM, 48 h",growth percent,115%
COc1c(CCC[P+](c2ccccc2)(c2ccccc2)c2ccccc2)cc2c(c1OC)OCO2.[I-],SRB,,Log10GI50,-6.47 log M
CCCCN1CCN(c2ccc3[nH]c(-c4ccc5[nH]c(-c6ccc(OCC)c(OCC)c6)nc5c4)nc3c2)CC1,cell growth,"10 µM, 48 h",growth percent,3.99%
CN1CCN(C2(CNC3CCN(c4cccc(-c5cc6cc(F)ccc6[nH]5)c4)CC3)CCC2)CC1,,,GI50,1970 nM
O=C1NC(c2ccccc2)(c2ccccc2)C(=O)N1Cc1cn(-c2cc3ccccc3oc2=O)nn1,NCI60 single dose,10 µM,growth,91.1%
COc1cc(CCC[P+](c2ccccc2)(c2ccccc2)c2ccccc2)c(OC)c(OC)c1OC.[I-],NCI60 SRB,concentration not given,growth percent,65.7%
CCOC(=O)CSc1nc(-c2ccc(Cl)cc2)c2c(NC(=O)c3ccccc3)nnc-2[nH]1,,10 µM,growth percent,93.7%
COc1cc(CCCO)c(OC)c(OC)c1OC,NCI60 SRB,concentration not given,growth percent,98.4%
CCCCN1CCN(c2ccc3[nH]c(-c4ccc5[nH]c(-c6cc(OC)c(OC)c(OC)c6)nc5c4)nc3c2)CC1,cell growth,"10 µM, 48 h",growth percent,85.7%
COc1cc(COC(=O)CCCCC[P+](c2ccccc2)(c2ccccc2)c2ccccc2)c(OC)c2c1OCO2.[Br-],NCI60 SRB,concentration not given,growth percent,-9.81%
O=C1NC(c2ccccc2)(c2ccccc2)C(=O)N1Cc1cn(-c2c3ccccc3nc3ccccc23)nn1,NCI60 single dose,10 µM,growth,73.3%

# Some of these lines once more:
SMILES,test,conditions,quantity,result
COc1c(CCC[P+](c2ccccc2)(c2ccccc2)c2ccccc2)cc2c(c1OC)OCO2.[I-],SRB,,Log10GI50,-6.47 log M
CCOC(=O)CSc1nc(-c2ccc(Cl)cc2)c2c(NC(=O)c3ccccc3)nnc-2[nH]1,,10 µM,growth percent,93.7%
CCCCN1CCN(c2ccc3nc(-c4ccc5nc(-c6cc(OC)ccc6OC)[nH]c5c4)[nH]c3c2)CC1,cell growth,"10 µM, 48 h",growth percent,115%
